# Measurements of several laboratories.
# Numbers after ± are the reported error.
# LYN: Tyrosine-protein kinase Lyn (LYN, Homo sapiens, UniProt P07948)
# Chain of UniProt P07948 (whole entry, looked up): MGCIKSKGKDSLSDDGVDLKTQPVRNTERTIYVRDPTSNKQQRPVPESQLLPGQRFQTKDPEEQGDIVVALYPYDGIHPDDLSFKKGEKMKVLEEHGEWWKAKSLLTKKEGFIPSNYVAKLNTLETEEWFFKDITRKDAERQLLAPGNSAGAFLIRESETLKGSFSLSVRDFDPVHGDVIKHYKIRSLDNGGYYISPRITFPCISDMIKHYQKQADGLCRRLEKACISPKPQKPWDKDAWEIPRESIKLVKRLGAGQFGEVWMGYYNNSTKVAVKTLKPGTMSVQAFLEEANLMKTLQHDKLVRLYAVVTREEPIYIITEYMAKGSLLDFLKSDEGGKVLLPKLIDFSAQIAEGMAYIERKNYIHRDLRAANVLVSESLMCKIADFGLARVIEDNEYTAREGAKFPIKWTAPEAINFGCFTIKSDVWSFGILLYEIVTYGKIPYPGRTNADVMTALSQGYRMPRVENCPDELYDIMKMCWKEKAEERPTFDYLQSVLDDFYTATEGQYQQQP
# UCHL1: Ubiquitin carboxyl-terminal hydrolase isozyme L1 (UCHL1, Homo sapiens, UniProt P09936)
# Chain of UniProt P09936 (whole entry, looked up): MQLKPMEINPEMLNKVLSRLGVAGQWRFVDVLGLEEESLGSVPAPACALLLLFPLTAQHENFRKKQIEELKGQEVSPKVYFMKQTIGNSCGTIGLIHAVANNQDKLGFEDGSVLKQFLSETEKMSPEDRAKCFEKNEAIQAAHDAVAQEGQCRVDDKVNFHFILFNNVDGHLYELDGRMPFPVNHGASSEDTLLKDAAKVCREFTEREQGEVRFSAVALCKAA
# LYN isoform B: Tyrosine-protein kinase Lyn, isoform B (LYN, Homo sapiens, UniProt P07948)
Structure (SMILES),target,test,setting,scale,quantity,value
C=CC(=O)N1CCC(COCC(=O)N2CCN(c3nc(-c4cnc(N)nc4C(F)F)nc(N4CCOC[C@@H]4C)n3)CC2)CC1,LYN,KINOMEscan,1 µM,,remaining binding,90%
CS(=O)(=O)Nc1cccc(-c2csc(NC(=O)CSc3nc4nccnc4c(=O)n3CCc3ccccc3)n2)c1,LYN,"kinase activity, inhibitor",10 µM,,inhibition,3%
CC#CC(=O)N(Cc1ccc(F)cc1)C1CCN(C(C)=O)CC1,UCHL1,"covalent, intact protein LC-MS",12.5 µM,,labelling,19.7%
C=CC(=O)N1CCC[C@@H](n2nc(-c3ccc(Oc4ccccc4)cc3)c3c(N)ncnc32)C1,LYN isoform B,"kinase activity, inhibitor, HotSpot radiometric","100 nM, with: ATP 10 µM",,remaining activity,52.1 ± 0.4%
N#CC(=Cc1ccccc1Cl)C(=O)Nc1ccc(Cl)cc1,UCHL1,"covalent, intact protein LC-MS",12.5 µM,,labelling,15.5%
COc1cc2ncnc(Nc3ccc(Oc4ccccc4)c(C)c3C)c2cc1OC,LYN isoform B,"kinase activity, inhibitor",1 µM,,inhibition,88%
COc1cc(-c2cncc3c2CN(C)Cc2cc(N4CCNCC4)ccc2-3)cc(OC)c1OC,LYN,kinase activity,"1 µM, human enzyme, with: ATP 10 µM",relative to: DMSO control,remaining activity,41%
CC#CC(=O)N1CCC[C@H]1c1nc(-c2ccc(C(=O)Nc3ccccn3)cc2)c2c(N)nccn12,LYN,"kinase activity, inhibitor, HotSpot radiometric","100 nM, with: ATP 10 µM",,remaining activity,103.9 ± 0.5%
[2H]c1cc(C)c(NC(=O)c2cnc(Nc3cc(N4CCC(O)CC4)nc(C)n3)s2)c(Cl)c1,LYN isoform B,,0.001 µM,,inhibition,> 50%
CCOc1cc(-c2nncn2C)ccc1Nc1ncc2cc(C)nc(NCC(C)(C)C)c2n1,LYN,"kinase activity, Z'-LYTE",1 µM,,inhibition,< 15%
COc1ccc(F)cc1C(=O)NCc1ccc(-c2nn([C@@H](C)C(F)(F)F)c(N)c2C(N)=O)cc1,LYN,"kinase activity, inhibitor, HotSpot radiometric","100 nM, with: ATP 10 µM",,remaining activity,87.2 ± 0.1%
[2H]c1cc(C)c(NC(=O)c2cnc(Nc3cc(N4CCCCC4)nc(C)n3)s2)c(Cl)c1,"Tyrosine-protein kinase Lyn, isoform A (LYN, Homo sapiens, UniProt P07948)",,0.01 µM,,inhibition,> 90%
CC/C(=N\NC(=O)NCc1cccc(O)c1)c1ccc(O)c(C)c1O,LYN isoform B,kinase activity,0.1 µM,,inhibition,2.4%

# Some of these lines once more:
Structure (SMILES),target,test,setting,scale,quantity,value
CC#CC(=O)N(Cc1ccc(F)cc1)C1CCN(C(C)=O)CC1,UCHL1,"covalent, intact protein LC-MS",12.5 µM,,labelling,19.7%
COc1cc(-c2cncc3c2CN(C)Cc2cc(N4CCNCC4)ccc2-3)cc(OC)c1OC,LYN,kinase activity,"1 µM, human enzyme, with: ATP 10 µM",relative to: DMSO control,remaining activity,41%
